Assay results pooled from the literature.
Lines come from different studies, so protocols differ. ± gives the spread as reported. Ends that are not written are not given here. * marks the point of attachment.

Substance	assay	test system	setting	how to read	quantity	result
CCCN(O)N=Nc1ccc(S(=O)(=O)Nc2onc(C)c2C)cc1	paw oedema	rat, carrageenan oedema	oral, 100 mg/kg, 4 h after carrageenan	relative to: vehicle	inhibition	68.6%
insulin aspart		obese type 2 diabetes patients	subcutaneous, 0.2 U/kg, before standard meal		peak plasma glucose	181 mg/dL
Cc1cc(C)c(/C=C2\C(=O)Nc3ccccc32)[nH]1	MRI	human	dose not given, 1.3 months		tumour volume	95.3 cm³
CC(=O)c1sc(N=C2c3ccccc3-c3nc4cc(F)ccc4nc32)nc1C		mice with STZ-induced diabetes	oral, 25 mg/kg, 288 h, day 12		blood glucose	300 ± 18.2 mg/dL
CNC(=O)c1cc(Oc2ccc(NC(=O)Nc3ccc(Cl)c(C(F)(F)F)c3)cc2)ccn1	nodule area	nude mouse, intrahepatic MHCC97H	oral, 2 mg/kg every 2 days, 10 doses, 21 days, cells transfected		inhibition	62.1 ± 6.58%
SIYNFEKL	flow cytometry, measured: CD44hi CD8+ T cells	peptide, OT-I CD8+ T cells, mouse	dose not given, primed 5 days, restimulated 100 ng/mL OVA257, with: no TGF-β1		IL-2+ IFN-γ+ cells	17.9%
CCC1SC(NN=C2c3ccccc3-c3nc4cc(F)ccc4nc32)=NC1=O (stereo not shown)		mice with STZ-induced diabetes	oral, 25 mg/kg, 216 h, day 9		blood glucose	218 ± 6.3 mg/dL
CCCCCCCCCCCCCCCC(=O)N[C@@H](CCC(=O)NCCCC[C@H](NC(=O)[C@H](C)NC(=O)[C@H](C)NC(=O)[C@H](CCC(N)=O)NC(=O)CNC(=O)[C@H](CCC(=O)O)NC(=O)[C@H](CC(C)C)NC(=O)[C@H](Cc1ccc(O)cc1)NC(=O)[C@H](CO)NC(=O)[C@H](CO)NC(=O)[C@@H](NC(=O)[C@H](CC(=O)O)NC(=O)[C@H](CO)NC(=O)[C@@H](NC(=O)[C@H](Cc1ccccc1)NC(=O)[C@@H](NC(=O)CNC(=O)[C@H](CCC(=O)O)NC(=O)[C@H](C)NC(=O)[C@@H](N)Cc1c[nH]cn1)[C@@H](C)O)[C@@H](C)O)C(C)C)C(=O)N[C@@H](CCC(=O)O)C(=O)N[C@@H](Cc1ccccc1)C(=O)N[C@H](C(=O)N[C@@H](C)C(=O)N[C@@H](Cc1c[nH]c2ccccc12)C(=O)N[C@@H](CC(C)C)C(=O)N[C@H](C(=O)N[C@@H](CCCNC(=N)N)C(=O)NCC(=O)N[C@@H](CCCNC(=N)N)C(=O)NCC(=O)O)C(C)C)[C@@H](C)CC)C(=O)O		diet-induced obese mice	subcutaneous, 80 nmol/kg once daily, 57 days	relative to: vehicle	body weight reduction	8 ± 4.87%
COc1c(C)c(C)c2c(c1C)CCC(C)(C(=O)NN=C1C(=O)Nc3cc(Cl)ccc31)O2 (stereo not shown)	seizure protection	male CF-1 mice	intraperitoneal, 4 h, with: maximal electroshock		minimal effective dose	300 mg/kg
CC(C)[C@H](NC(=O)C(C)(F)F)[C@H](Oc1ccc2c(cnn2-c2ccc(=O)n(C)c2)c1)c1ccccc1	TNF-alpha release	human, whole blood ex vivo	unbound concentration, PK/PD model, with: lipopolysaccharide		IC50	4.87 nM
Cc1c(C)c2c(c(C)c1O)CCC(C)(C(=O)NN=C1C(=O)Nc3ccc(Br)cc31)O2 (stereo not shown)	seizure protection	male CF-1 mice	intraperitoneal, 4 h, with: pentylenetetrazole 60 mg/kg subcutaneous		minimal effective dose	30 mg/kg
insulin aspart	euglycaemic glucose clamp	elderly type 1 diabetes	subcutaneous, 0.2 U/kg		time to early 50% GIRmax	37.7 min
O=S(=O)(Nc1nccs1)c1ccc(N=NN(O)c2ccccc2)cc1	paw oedema	rat, carrageenan oedema	oral, 100 mg/kg, 2 h after carrageenan	relative to: vehicle	inhibition	17.4%
Polymyxin B		human whole blood	125 ng/mL, 4 h, 37 °C, with: E. coli LPS 0.5 ng/mL	relative to: LPS without compound	IL-1β release	24.9 ± 10.8%
Cc1c(C)c2c(c(C)c1OCc1ccccc1)CCC(C)(C(=O)NN=C1C(=O)Nc3ccc(Cl)cc31)O2 (stereo not shown)	seizure protection	male CF-1 mice	intraperitoneal, 0.5 h, with: maximal electroshock		minimal effective dose	100 mg/kg
CC(C)C[C@H](NC(=O)[C@H](CO)NC(=O)[C@H](CCCNC(=N)N)NC(=O)[C@H](CC(=O)O)NC(=O)[C@H](CCC(=O)O)NC(=O)[C@H](C)NC(=O)[C@@H]1CCCN1C(=O)[C@H](C)NC(=O)[C@H](CCC(=O)O)NC(=O)[C@@H]1CCCN1C(=O)[C@@H]1CCCN1)C(N)=O	HPLC-EC	F344 rat, normal, striatum	intranasal, 100 µg, 5 days/week for 3 weeks		HVA level	570 ± 78 ng/g
C[C@H](NC(=O)c1c(N)nn2cccnc12)c1cc2cccc(C#Cc3cnn(C)c3)c2c(=O)n1-c1ccccc1	RECIST	human	20 mg		time to partial response	11.1 months
SIIVFEKL	flow cytometry, measured: CD44hi CD8+ T cells	peptide, OT-I CD8+ T cells, mouse	dose not given, primed 5 days, TGF-β1 from day 2 onward, with: 20 ng/mL TGF-β1		IL-2+ IFN-γ+ cells	2.54%
AGEDPHGYFLPGQFA	IL-12p40 expression	peptide, peritoneal macrophages, C57BL/6 mouse	1 pM, 15 h, pretreated 1 h, with: LPS 100 ng/ml + IFN-γ 20 ng/ml		inhibition	47%
Cc1cccc(N(O)N=Nc2ccc(S(=O)(=O)Nc3nccs3)cc2)c1	paw oedema	rat, carrageenan oedema	oral, 100 mg/kg, 2 h after carrageenan	relative to: vehicle	inhibition	37.1%
COc1ccc(/C=C(\C(=O)c2cc(C)[nH]c(=O)c2C(=O)N2CCCCC2)c2ccc(OC)c(C)c2)cc1C	cell proliferation, MTT	35404 melanoma brain metastasis, human patient-derived	72 h, tested up to 10 µM		IC50	> 10000 nM
Palmitoyl-PCSTSSMA (N-palmitoyl; Palmitoyl = CCCCCCCCCCCCCCCC(=O)*)		SCID mouse, subcutaneous AsPC-1 xenograft, tumour tissue	intratumoral, 500 µg/mouse/day, 3 weeks		Ki67-positive nuclei	11.2 ± 2.25%
c1ccc2cc3c(ccc4ccccc43)cc2c1	adrenal haemorrhage prevention	rat	oral, with: 7,12-DMBA 5 mg i.v.		minimal protective dose	1 mg
CCOc1nc2cccc(C(=O)O)c2n1Cc1ccc(-c2ccccc2-c2nn[nH]n2)cc1		mouse DSS colitis	transanal, 10 mg/kg/day, day 1	relative to: baseline	body weight change	-0.63 ± 1.63%
C[n+]1cccc2c(N)cccc21		mouse, diet-induced obese (high-fat diet)	subcutaneous, 10 mg/kg/day once daily, at termination		body weight gain	5.2 g

Substance	assay	test system	setting	how to read	quantity	result
CC(C)[C@H](NC(=O)[C@@H]1CSSC(C)(C)[C@H](NC(=O)[C@@H](N)CC(=O)O)C(=O)N[C@@H](Cc2ccccc2)C(=O)N[C@H](Cc2c[nH]c3ccccc23)C(=O)N[C@@H](CCCN)C(=O)N[C@@H](Cc2ccc(N)cc2)C(=O)N1)C(=O)O		male Wistar rat, anaesthetised	intracavernous, 0.03 nmol		intracavernous pressure AUC	242 ± 33.8 mmHg·s
CCCN(O)N=Nc1ccc(S(=O)(=O)Nc2nccs2)cc1	paw oedema	rat, carrageenan oedema	oral, 100 mg/kg, 4 h after carrageenan	relative to: vehicle	inhibition	82.3%
human insulin		type 1 diabetes patients, blood	dose not given, with: liquid meal 60 g carbohydrate		peak postprandial glucose	190 mg/dL
GLFHDQAGPPAGYEF	ELISA or Luminex	peptide, mouse peritoneal macrophages, C57BL/6 mouse	optimal dose within 0.1 pM to 100 nM, 1 h pretreatment, 15 h stimulation, with: LPS 100 ng/mL + IFN-γ 20 ng/mL	relative to: LPS/IFN-γ stimulated control	inhibition of RANTES release	0%
C[C@]1(c2nc3c(C(N)=O)cccc3[nH]2)CCCN1	immunoassay, measured: poly(ADP-ribose)	human patients, PBMC	dose not given, 4 h post-dose, PAR reduction over 75%		patients with PAR reduction	68%
Cc1c(C)c2c(c(C)c1O)CCC(C)(C(=O)NN=C1C(=O)N(C)c3cc(Cl)ccc31)O2 (stereo not shown)	seizure protection	male CF-1 mice	intraperitoneal, 0.5 h, with: maximal electroshock		minimal effective dose	30 mg/kg
CCCCCCCCCCCCCCCC(=O)OCC(=O)[C@@]12OC(CCC)O[C@@H]1C[C@H]1[C@@H]3CCC4=CC(=O)C=C[C@]4(C)[C@H]3[C@@H](O)C[C@@]12C (stereo partly shown)	measured: human FGF21 protein	CD-1 mouse, plasma	subcutaneous, 0.3 mg/kg mRNA, MC3 LNP with hFGF21 mRNA, steroid/mRNA 2:3	relative to: LNP without steroid	AUC(2-58 h) fold change	3 fold
NNC1=NC(=O)C(=C2c3ccccc3-c3nc4cc(F)ccc4nc32)S1		mice with STZ-induced diabetes	oral, 25 mg/kg, 288 h, day 12		blood glucose	408 ± 40.3 mg/dL
Cc1cc(-c2ccc(C(=O)[C@@H]3CCCC[C@H]3C(=O)Nc3cnn4c3C(=O)NCC4)cc2)n[nH]1	LTB4 production, measured: leukotriene B4	human, whole blood, ex vivo	versus trough plasma concentration, with: calcium ionophore		IC50	5.3 nM
COc1cc(OC)c(OC)cc1/C=C(\C(=O)c1cc(C)[nH]c(=O)c1C(=O)N1CCCCC1)c1cc(OC)c(OC)cc1OC	cell proliferation, MTT	35404 melanoma brain metastasis, human patient-derived	72 h, tested up to 10 µM		IC50	> 10000 nM
Cc1c(C)c2c(c(C)c1OCc1ccccc1)CCC(C)(C(=O)NN=C1C(=O)Nc3ccc(F)cc31)O2 (stereo not shown)	seizure protection	male CF-1 mice	intraperitoneal, 4 h, with: maximal electroshock		minimal effective dose	300 mg/kg
CCCCCNc1oc2c(C)ncc(CO)c2c1Nc1ccccn1	adjuvant activity, measured: anti-α-lactalbumin IgG	New Zealand White rabbit	intramuscular, 100 µg, day 38, unit not given, with: bovine α-lactalbumin 100 µg	relative to: pre-immune titre	IgG titre rise	> 1000
Cc1cccc2c1ccc1cc3ccccc3cc12	adrenal haemorrhage prevention	rat	oral, with: 7,12-DMBA 5 mg i.v.		minimal protective dose	0.5 mg
CC(=O)N[C@@H](CCCCN)C(=O)N[C@@H](CC(C)C)C(=O)N[C@@H](CC(=O)O)C(=O)N[C@@H](CC(C)C)C(=O)N[C@@H](CCCCN)C(=O)N[C@@H](CC(C)C)C(=O)N[C@@H](CC(=O)O)C(=O)N[C@@H](CC(C)C)C(=O)N[C@@H](CCCCN)C(=O)N[C@@H](CC(C)C)C(=O)N[C@@H](CC(=O)O)C(=O)N[C@@H](CC(C)C)C(N)=O	TUNEL	Sprague Dawley rat, knee OA model, cartilage	intra-articular, dose not given, 6 weeks		apoptotic chondrocytes	9%
CC(=NN=c1[nH]c(C)c(N=Nc2ccc(Br)cc2)s1)c1c(O)c2ccccc2oc1=O		mice with Ehrlich ascites carcinoma	ip, 2 mg/kg twice weekly, 2 weeks		body weight change	8.5%
CC(=O)c1sc(NN=C2c3ccccc3-c3nc4cc(F)ccc4nc32)nc1C		mice with STZ-induced diabetes	oral, 25 mg/kg, 288 h, day 12		blood glucose	215 ± 9.97 mg/dL
NCCCC[C@@H]1NC(=O)[C@@H](Cc2c[nH]c3ccccc23)NC(=O)[C@H](c2ccccc2)NC(=O)[C@@H]2C[C@@H](OC(=O)NCCN)CN2C(=O)[C@H](Cc2ccccc2)NC(=O)[C@H](Cc2ccc(OCc3ccccc3)cc2)NC1=O	GHRH-stimulated GH secretion	healthy human volunteers	subcutaneous, 600 µg, with: GHRH 1 µg/kg	relative to: pre-dose baseline	GH AUC(0-2h) change	-82.5%
Cc1c(C)c2c(c(C)c1OCc1ccccc1)CCC(C)(C(=O)NN=C1C(=O)Nc3ccccc31)O2 (stereo not shown)	seizure protection	male CF-1 mice	intraperitoneal, 4 h, with: maximal electroshock		minimal effective dose	> 300 mg/kg
Cn1cnc2c(F)c(Nc3ccc(Br)cc3Cl)c(C(=O)NOCCO)cc21	volumetric MRI	human	30 mg	relative to: best response	tumour volume increase	44%
COCCc1ccc(OCC(O)CNC(C)C)cc1 (stereo not shown)		rats, adrenaline arrhythmia, myocardium	intragastric, 2.57 g/kg daily, 14 days		SERCA activity	20 ± 1.22 U/mL
Cc1c(C)c2c(c(C)c1OCc1ccccc1)CCC(C)(C(=O)NN=C1C(=O)N(C)c3ccccc31)O2 (stereo not shown)	seizure protection	male CF-1 mice	intraperitoneal, 4 h, with: maximal electroshock		minimal effective dose	100 mg/kg
O=C1CSC(N=C2c3ccccc3-c3nc4cc(F)ccc4nc32)=N1		mice with STZ-induced diabetes	oral, 25 mg/kg, 144 h, day 6		blood glucose	293 ± 17.8 mg/dL
Cc1c(C)c2c(c(C)c1O)CCC(C)(C(=O)NN=C1C(=O)Nc3ccc(Cl)cc31)O2 (stereo not shown)	seizure protection	male CF-1 mice	intraperitoneal, 4 h, with: maximal electroshock		minimal effective dose	30 mg/kg
COc1ccc2c(c1)c(CC(=O)O)c(C)n2C(=O)c1ccc(Cl)cc1	multiplex bead immunoassay, measured: IL-9	CD-1 mice, serum	ip, 20 mg/kg, three-injection regimen, with: LPS 3 mg/kg		cytokine level	119 ± 60 pg/mL

Some of these lines once more:
Substance	assay	test system	setting	how to read	quantity	result
COc1c(C)c(C)c2c(c1C)CCC(C)(C(=O)NN=C1C(=O)Nc3cc(Cl)ccc31)O2 (stereo not shown)	seizure protection	male CF-1 mice	intraperitoneal, 4 h, with: maximal electroshock		minimal effective dose	300 mg/kg
CC(C)[C@H](NC(=O)C(C)(F)F)[C@H](Oc1ccc2c(cnn2-c2ccc(=O)n(C)c2)c1)c1ccccc1	TNF-alpha release	human, whole blood ex vivo	unbound concentration, PK/PD model, with: lipopolysaccharide		IC50	4.87 nM
Cc1c(C)c2c(c(C)c1O)CCC(C)(C(=O)NN=C1C(=O)Nc3ccc(Br)cc31)O2 (stereo not shown)	seizure protection	male CF-1 mice	intraperitoneal, 4 h, with: pentylenetetrazole 60 mg/kg subcutaneous		minimal effective dose	30 mg/kg
insulin aspart	euglycaemic glucose clamp	elderly type 1 diabetes	subcutaneous, 0.2 U/kg		time to early 50% GIRmax	37.7 min
